Experimental data from different studies.
Each line is one published result; not all experiments were run side by side. ± marks the error that the study gave.
IDE: Insulin-degrading enzyme (IDE, Homo sapiens, UniProt P14735)

SMILES	target or system	test	test system	conditions	scale	measurement	result
N#Cc1ccc2c(c1)[C@H]1CCCN(C(=O)c3ccc4[nH]cnc4c3)[C@H]1C2	–	–	human	240 mg, day 7	baseline: baseline	cortisol level change	-103 nmol/L
Cc1c(Cl)c(C)[n+]([O-])c(Cl)c1-c1noc(-c2cc(O)c(O)c([N+](=O)[O-])c2)n1	–	refers to: Moderate severity	healthy Caucasian subjects	oral, 50 mg, 10 days	–	adverse event incidence	6.7%
Cc1ccc(N(C)C(=O)/C=C/c2ccco2)cc1	–	hot plate test	mice	oral, 30 mg/kg daily for 7 days, 0 min, day 8	–	licking latency	14.7 ± 0.3 s
Cc1cc(NC2CCN(C(=O)OC3CCN(C(=O)/C=C/CN(C)C)C3)CC2)n2ncc(C(C)C)c2n1 (centres unmarked)	–	Phase I dose escalation CTCAE v4.0, refers to: pain in extremity	patients with advanced solid tumours	dose not given, QD dosing grade 3 or higher	–	patients with adverse event	0%
Cc1ccc([C@@H]2O[C@H](CO)[C@@H](O)[C@H](O)[C@H]2O)cc1Cc1ccc(-c2ccc(F)cc2)s1	–	–	Japanese type 2 diabetes patients	100 mg, day 1, 24 h urine collection	baseline: baseline	urinary chloride excretion change	48.7 mEq
Nc1ncnc2c1c(Oc1cc(C(F)(F)F)ccn1)nn2[C@@H]1CCCC[C@H]1O	–	–	minipig, liver microsomes	–	–	metabolic stability	stable
CCCCC[C@H](O)CC[C@@H]1[C@H]2Cc3cccc(OCC(=O)O)c3C[C@H]2C[C@H]1O	–	LC-MS/MS	Japanese PAH patients aged ≥sample A years, plasma	inhaled, 54 µg	–	geometric mean AUC(0-inf)	1.11 ng·h/mL
Cc1ccc2nc(-c3ccccc3)c(CNc3cccc(C(F)(F)F)c3)n2c1	–	–	peritoneal macrophages, Swiss mice	5 days, 5% fetal calf serum	–	CC50	> 63.1 µM
C[C@@H](c1ncncc1F)[C@](O)(Cn1cncn1)c1ccc(F)cc1F	–	–	human	oral, 400 mg, drug interaction trial	–	drug-related TEAE	36.4%
CCn1cc(C(=O)N2CCOCC2)c(=O)c2cc(NC3Cc4ccccc4C3)cnc21	–	–	human, fed	oral suspension, 600 mg/day twice daily, day 8, arithmetic mean	–	CL/F	32.5 L/h
Cc1ccccc1-c1ccc([C@H]2[C@H](CO)N3C(=O)CN(C(=O)c4ccncc4)C[C@@H]23)cc1	IDE	enzyme activity, inhibitor, fluorogenic kinetic	–	with: Mca-RPPGFSAFK(Dnp)-OH substrate	–	EC50	4.5 µM
COc1ccnc(C(N)=O)c1O	–	aerobic soil incubation	soil	worst-case terminal value, for exposure modelling	–	DT50	114 days
Nc1ncnc2c1ncn2[C@H]1C[C@@H]2OP(=O)(O)OC[C@H]3O[C@@H](n4cnc5c(N)ncnc54)C[C@@H]3OP(=O)(O)OC[C@H]2O1	–	–	non-tumour-bearing mice, blood	intravenous, 1 mg/kg	–	serum albumin	29.8 ± 4.63 g/L
O=C(Nc1nc2cccc(-c3ccc(CN4CCS(=O)(=O)CC4)cc3)n2n1)C1CC1	–	population PK model	human	oral, bootstrap median	–	slower absorption mixture fraction	0.823
N#Cc1ccc2c(c1)[C@H]1CCCN(C(=O)c3ccc4[nH]cnc4c3)[C@H]1C2	–	–	human, plasma	oral, 20 mg once daily, steady state	–	half-life steady state	109 h
Cc1ccccc1-c1ccc([C@@H]2[C@@H](CO)N3C(=O)CCCCCCN(S(=O)(=O)c4ccccc4C(F)(F)F)C[C@@H]23)cc1	IDE	enzyme activity, inhibitor, fluorescence kinetic	–	with: Mca-RPPGFSAFK(Dnp)-OH substrate	–	EC50	0.06 µM
CC(C)(C)C(=O)/N=S(\c1ccc(C(F)(F)F)cc1)C1CC1 (centres unmarked)	–	–	human liver microsomes	–	baseline: hepatic blood flow	metabolic stability	< 23%
O=C(Nc1ccc(OC(F)(F)Cl)cc1)c1cnc(N2CC[C@@H](O)C2)c(-c2ccn[nH]2)c1	–	per treatment cycle, refers to: amylase increase	human patients	oral, dose not given, 28 day cycle	–	any-grade event rate	2.2%
Cl.[2H]C([2H])([2H])CC(=O)c1cnc(NC(=O)C2CC2)cc1Nc1cccc(-c2ncn(C([2H])([2H])[2H])n2)c1OC	–	median	human	oral, 25 mg single dose, fasted, liquid	–	Tmax	1 h
CN(C)c1ccc(C(=O)NCCCCCC(=O)NO)cc1	HBL-1	–	–	0.5 µM, 120 h	–	viability	134%
CCN1/C(=C/C(C)=O)Sc2ccc(F)cc21	–	–	cynomolgus monkey	oral, 30 mg/kg, 2 h post-dose	baseline: pre-dose	mean blood pressure change	98.6 ± 3.5%
Cc1nc2cccc(OCC(C)(C)C(=O)NC(C)C)c2c(N)c1C(=O)O	–	–	male Swiss albino CD-1 mouse, bone marrow	oral, 2000 mg/kg, 48 h	–	micronucleated PCE per 14000 PCE	12
O=C(/C=C/c1ccc(CN(CCO)CCc2c[nH]c3ccccc23)cc1)NO	HBL-1	–	–	0.1 µM, 120 h	–	viability	17.3%

Some of these lines once more:
SMILES	target or system	test	test system	conditions	scale	measurement	result
Nc1ncnc2c1c(Oc1cc(C(F)(F)F)ccn1)nn2[C@@H]1CCCC[C@H]1O	–	–	minipig, liver microsomes	–	–	metabolic stability	stable
Cl.[2H]C([2H])([2H])CC(=O)c1cnc(NC(=O)C2CC2)cc1Nc1cccc(-c2ncn(C([2H])([2H])[2H])n2)c1OC	–	median	human	oral, 25 mg single dose, fasted, liquid	–	Tmax	1 h
CN(C)c1ccc(C(=O)NCCCCCC(=O)NO)cc1	HBL-1	–	–	0.5 µM, 120 h	–	viability	134%
